Assay results pooled from the literature.
Each line is one published result; not all experiments were run side by side. ± marks the error that the study gave.
Nr3c1: Glucocorticoid receptor (Nr3c1, Rattus norvegicus, UniProt P06536)
EPHX2: Bifunctional epoxide hydrolase 2 (EPHX2, Homo sapiens, UniProt P34913)
SNCA: Alpha-synuclein (SNCA, Homo sapiens, UniProt P37840)

`CN1CCN(CC(=O)N2N=C3/C(=C/c4ccccc4)CCCC3C2c2ccccc2)CC1` (mixture of isomers): “lag phase change” 93 s (ALOX15 (Homo sapiens, UniProt P16050); activator; 10 µM, added: arachidonic acid 50 µM; baseline: no activator).
With `CCCCCCCCCCCCSc1nc2c([nH]1)c(=O)n(C)c(=S)n2C` the remaining activity was 97% (Nr3c1; reporter gene, antagonist, MMTV-luciferase; T47D/A1-2; 10 µM, 24 h, added: 5 nM dexamethasone; baseline: maximal activity).
Under “lipophilic ligand efficiency”, `CC12CC3CC(C)(C1)CC(NC(=O)Nc1ccc(C(=O)N4CCCC(C(=O)O)C4)cc1)(C3)C2` (centres unmarked) is recorded as 6.22 (EPHX2).
With `[123I]c1ccc2nc(-c3ccc(-n4ccnn4)nc3)cn2c1` the SUVR was 0.74 ± 0.03 (Amyloid-beta precursor protein, amyloid-beta (APP, Homo sapiens, UniProt P05067); SPECT; healthy controls, Frontal cortex; 120 to 210 min; baseline: cerebellum).
For `O=C(Nc1ccc(Cl)cc1)Nc1cccc2[nH]ccc12`, “maximum ThT fluorescence” read 15 ± 3% (SNCA; fibril formation, ThT fluorescence kinetics; 100 µM, α-syn 2 µM, plateau phase; baseline: DMSO vehicle).
`CCCCOP(=O)(CCCC)O[C@@H]1O[C@H](CO)[C@@H](O)[C@H](O)[C@H]1F` (mixture of isomers) — result for “inactivation rate constant”: 0.49 min⁻¹ (GBA1 (Homo sapiens, UniProt P04062); enzyme activity, irreversible inhibitor; pH 5.5, 37 °C, added: 2,4-dinitrophenyl beta-D-glucopyranoside).
For `CC(C)CC[C@@H](O)[C@](C)(O)[C@H]1CC[C@@]2(O)C3=CC(=O)[C@]4(O)C[C@@H](O)[C@@H](O)C[C@]4(C)C3=CC[C@]12C`, “covalent blocking efficiency” read > 70% (Ecdysone receptor, with ultraspiracle (EcR, Drosophila melanogaster, UniProt P34021); photoaffinity ligand, [3H]ponasterone A binding; 100 nM, UV irradiation 350 nm, 20 min).
`COC(=O)Nc1ccc2c(c1)c(Cc1ccc(C(=O)NS(=O)(=O)c3ccc(C(F)(F)F)cc3)cc1OC)cn2C` has a Hill coefficient of 1.39 (Tumor necrosis factor receptor superfamily member 1A, extracellular domain (Homo sapiens, UniProt P19438); binding, 19F NMR).
For `NCCCC[C@H](NC(=O)[C@H](C/C=C\C[C@H](NC(=O)[C@@H]1CCCN1)C(=O)N[C@@H](CCCCN)C(=O)NCCCN)NC(=O)[C@@H]1CCCN1)C(=O)NCCCN`, the residence time was 17 s (CUG–CAG duplex RNA; SPR).
With `O=C(CCCCCCNCc1ccccc1)NO` the selectivity ratio was 5.3 (HDAC8 (Homo sapiens, UniProt Q9BY41); inhibitor; baseline: IC50 HDAC8 over HDAC1).
`N=C(N)NCCC[C@H](NC(=O)[C@H](CC(=O)O)NC(=O)[C@@H]1CSCC(=O)NCC(=O)N[C@@H](Cc2c[nH]cn2)C(=O)N[C@H](Cc2ccccc2)C(=O)N[C@@H](CCCNC(=N)N)C(=O)N[C@H](Cc2c[nH]c3ccccc23)C(=O)N1)C(=O)N[C@@H](Cc1ccccc1)C(=O)NCC(N)=O` has an activation of 0% (MC5R (Homo sapiens, UniProt P33032); cAMP accumulation, agonist; HEK293 expressing MC5R; 10 µM; baseline: MT-II).
`C=C(O[C@H]1C=CC=C(C(=O)O)[C@@H]1O)C(=O)O` has a Vmax of 4.91 ± 0.22 µM/min (Enterobactin synthase component B (entB, Escherichia coli, UniProt P0ADI4); isochorismatase activity; 0.1 µM EntB, LDH-coupled, added: 0 µM 2,3-dihydroxybenzoate).
Under “dissociation rate constant”, `CNc1ccccc1C(=O)O[C@H]1C[C@H](n2cnc3c(N)ncnc32)O[C@@H]1COP(=O)(O)OP(=O)(O)O` is recorded as 42.2 ± 0.6 s⁻¹ (Unconventional myosin-Va (Gallus gallus, UniProt Q02440, D297C/G292C/I296C/S293C/V295G); stopped-flow FRET; 15 °C, added: EDTA 4 mM).
The Hill slope of `CC(C)(C)CCN1C[C@@H]2[C@@H](CNC(=O)c3cc(Cl)cc(Cl)c3)[C@@H]2C1.Cl` is reported as 0.8 ± 0.11 (CACNA1C (Oryctolagus cuniculus, UniProt P15381); whole-cell patch clamp; HEK-293T, transfected).
`CC1=CC(C)=[N+]2C1=C(CCCCc1cn(C[C@H]3O[C@@H](O/C(=N\c4ccccc4)C(F)(F)F)[C@H](F)[C@@H](O)[C@@H]3O)nn1)c1c(C)cc(C)n1[B-]2(F)F` gave a Tm increase of 12.9 °C (GBA1 (Homo sapiens, UniProt P04062, R534H); thermal stability, tryptophan fluorescence; saturating, pH 5.2).
`C=CC(=O)N1C[C@H](C)N(c2nc(OC[C@@]34CCCN3C[C@H](F)C4)nc3c(F)c(-c4ccc(F)c5sc(N)nc45)c(C(F)(F)F)cc23)C[C@H]1C` has an IC50 ratio of 30 fold (GTPase KRas, GTP; with RAF1 RBD (KRAS, Homo sapiens, UniProt P01116, G12C); RAF1 RBD binding, HTRF; baseline: GTP-bound over GppNHp-bound KRAS G12C).
`CC[C@H](C)[C@@H]1NC(=O)[C@H](Cc2ccccc2)NC(=O)[C@H](CCC(=O)O)NC(=O)[C@H](CCCNC(=N)N)NC(=O)CNC(=O)[C@@H](NC(=O)[C@H](CC(C)C)NC(=O)[C@H](CCCNC(=N)N)NC(=O)[C@@H](NC(=O)CNC(=O)[C@H](Cc2ccc(O)cc2)NC(=O)[C@@H]2CCCN2C(=O)[C@H](C)NC(=O)[C@H](C)NC(=O)[C@@H](N)CCCNC(=N)N)C(C)C)CSSC[C@@H]2NC(=O)[C@@H](NC(=O)[C@H](CO)NC(=O)[C@H](CO)NC(=O)[C@H](CO)NC(=O)[C@H](CC(C)C)NC(=O)CNC(=O)[C@H](C)NC(=O)[C@H](CC(C)C)NC(=O)[C@@H](NC(=O)[C@@H](N)CC(=O)O)C(C)C)CSSC[C@H](NC(=O)CNC(=O)[C@H](Cc3c[nH]c4ccccc34)NC(=O)[C@H](CCCCN)NC2=O)C(=O)N[C@@H](CO)C(=O)N[C@@H](CCCCN)C(=O)N[C@@H](CO)C(=O)N[C@@H](CCC(=O)O)C(=O)N[C@@H]([C@@H](C)CC)C(=O)N[C@@H](CO)C(=O)N[C@@H](CO)C(=O)N[C@@H](CC(C)C)C(=O)N[C@H](C(=O)O)CSSC[C@@H](C(=O)NCC(=O)NCC(=O)N[C@@H](CO)C(=O)N[C@@H](CCCNC(=N)N)C(=O)N[C@@H](Cc2c[nH]c3ccccc23)C(=O)O)NC(=O)[C@H]([C@@H](C)O)NC(=O)[C@H](Cc2ccccc2)NC(=O)[C@H]([C@@H](C)CC)NC(=O)[C@H](C(C)C)NC(=O)[C@H](C)NC(=O)[C@H](CCCNC(=N)N)NC1=O` has a potency reduction of 14 fold (RXFP4 (Homo sapiens, UniProt Q8TDU9, L190A); cAMP response, agonist; concentration not given, L190A mutant; baseline: wild type).
The remaining activity of `CC(=O)N[C@@H](Cc1c[nH]c2ccccc12)C(=O)N[C@@H](Cc1c[nH]c2ccccc12)C(=O)N[C@@H](Cc1c[nH]c2ccccc12)C(=O)N[C@@H](Cc1c[nH]c2ccccc12)C(=O)N[C@@H](Cc1c[nH]c2ccccc12)C(=O)N[C@@H](Cc1c[nH]c2ccccc12)C(=O)NCCCC[C@@H]1NC(=O)[C@H](CCCNC(=N)N)NC(=O)[C@H](CCCNC(=N)N)NC(=O)[C@H](CCCNC(=N)N)NC(=O)[C@H](CCCNC(=N)N)NC(=O)[C@H](CCCNC(=N)N)NC(=O)[C@H](CCCNC(=N)N)NC1=O` is reported as 83.1% (KIT (Homo sapiens, UniProt P10721); enzyme activity, inhibitor; 5 µM).
For `CC(=O)C12NC(C)(C)CC1(C)C(=O)C1=C2c2c(c3c4n2C(C)(C)CC2=C4C4(CC(C)(C)NC(C)(C4)C2=O)CC3(C)C)C(=O)C(C)(C)N1` (single isomer, unassigned; (+)), agonist activity read “inactive” (OPRD1 (Homo sapiens, UniProt P41143); agonist, cAMP; CHO; concentration not given).
For `CC[C@H](C)[C@H](NC(=O)CNC(C)=O)C(=O)N[C@@H](CCCNC(=N)N)C(=O)N[C@@H](CCC(=O)O)C(=O)N[C@@H](C)C(=O)N[C@H](C(=O)N[C@@H](CC(C)C)C(=O)N[C@@H](CCCNC(=N)N)C(=O)N[C@@H](C)C(=O)N[C@@H](Cc1c[nH]c2ccccc12)C(=O)N[C@@H](CCC(=O)O)C(=O)N[C@@H](CCCNC(=N)N)C(=O)N[C@@H](CCCNC(=N)N)C(=O)N[C@@H](Cc1ccc(O)cc1)C(=O)NCC(N)=O)[C@@H](C)O`, the ΔH was -7.6 ± 0.1 kcal/mol (Antirepressor protein CarS (carS, Myxococcus xanthus, UniProt Q06911); ITC; pH 7.5, 25 °C).
Under “membrane dipole potential change”, `CCCCCCCCCc1nc2ccccc2c(=O)n1N` is recorded as “increased” (Staphylococcus aureus membranes; di-8-ANEPPS fluorescence ratio; 40 µM).
`CC1=C(/C=C/C(C)=C/C=C/C(C)=C/C=O)C(C)(C)CCC1` — result for “slow time constant of inhibition”: 769 s (CNGA1 (Bos taurus, UniProt Q00194); ion current, inhibitor, patch clamp; 200 nM, holding potential -50 mV, added: cGMP 2 mM).
`Cc1cc(C(=O)CN2CCCC2=O)c(C)n1Cc1ccccc1` gave an Emax of 35% (S1PR2 (Homo sapiens, UniProt O95136); reporter gene, agonist).
For `C[C@H](NC(=O)[C@H](C)NC(=O)[C@H](CCCNC(=N)N)NC(=O)[C@@H]1CCCN1C(=O)[C@H](CCCNC(=N)N)NC(=O)CNC(=O)c1ccc2c(c1)C1(OC2=O)c2ccc(O)cc2Oc2cc(O)ccc21)C(=O)N[C@H](C(=O)N[C@@H](Cc1ccccc1)C(=O)N[C@@H](C)C(=O)N[C@@H](CCC(=O)O)C(=O)NCC(N)=O)[C@@H](C)O`, “time to half phosphorylation” read 17 min (AKT1 (Homo sapiens, UniProt P31749); substrate, CE-LIF; 25 µM, pH 7.0, 30 °C, enzyme 6 nM, added: ATP 1 mM).
For `CCCC[C@@H]1NC(=O)[C@@H](CC(C)C)NC(=O)[C@H](CCCCN)NC(=O)[C@@H](CO)NC(=O)[C@H](Cc2c[nH]cn2)NC(=O)[C@@H](Cc2c[nH]c3ccccc23)NC1=O`, aggregation read “inactive” (SNCA; inhibitor, ThT fluorescence; substoichiometric, 37 °C, added: α-synuclein 40 µM).
For `S=C(c1ccc(-c2cc(Cl)ccc2Cl)o1)N1CCN(CCc2ccccn2)CC1`, the Emax was 148% (NPR2 (Homo sapiens, UniProt P20594); HTRF, item: cGMP; HEK293 overexpressing GC-B; added: subthreshold CNP; baseline: saturating CNP).
For `Brc1ccccc1-c1nnc(CSc2nnnn2-c2ccccc2)o1`, IC50 read “inactive” (CRHR1 (Homo sapiens, UniProt P34998); calcium signal, antagonist; added: CRF at EC80).
For `CC12CC3CC(C)(C1)CC(NC(=O)Nc1ccc(C(=O)N4CCN(C(=O)C5CC5)CC4)cc1)(C3)C2`, “lipophilic ligand efficiency” read 6.19 (EPHX2).
Under activation, `O=C(NC[C@@H](Cc1ccccc1)N1CCC(O)(C(F)(F)F)CC1)C1(c2ccc(Cl)cc2)CCCC1` is recorded as “inhibited” (TRPA1 (Homo sapiens, UniProt O75762, V875G); calcium influx, agonist; concentration not given, V875G mutant).
`Cn1sc(=O)n(Cc2ccccc2)c1=O` gave an inhibitory concentration of 15.6 µM (Bacteroides Pif1 helicase; helicase unwinding activity).
With `CCCCCSc1nc2c([nH]1)c(=O)n(C)c(=O)n2C` the remaining activity was 122% (Nr3c1; reporter gene, antagonist, MMTV-luciferase; T47D/A1-2; 10 µM, 24 h, added: 5 nM dexamethasone; baseline: maximal activity).
For `COc1cc(C(=O)NC2CCC(N3CCN(CC4CCC5(CCCC5)C4)CC3)CC2)c(F)cc1Nc1ncc2c(n1)N(C1CCCC1(F)F)CC(F)(F)C(=O)N2C` (centres unmarked), the inhibition was 0.48 ± 0.02% (PLK5 (human); binding, LanthaScreen kinase binding; 10 µM).

Repeated from above:
For `CC(=O)C12NC(C)(C)CC1(C)C(=O)C1=C2c2c(c3c4n2C(C)(C)CC2=C4C4(CC(C)(C)NC(C)(C4)C2=O)CC3(C)C)C(=O)C(C)(C)N1` (single isomer, unassigned; (+)), agonist activity read “inactive” (OPRD1 (Homo sapiens, UniProt P41143); agonist, cAMP; CHO; concentration not given).
For `CCCC[C@@H]1NC(=O)[C@@H](CC(C)C)NC(=O)[C@H](CCCCN)NC(=O)[C@@H](CO)NC(=O)[C@H](Cc2c[nH]cn2)NC(=O)[C@@H](Cc2c[nH]c3ccccc23)NC1=O`, aggregation read “inactive” (SNCA; inhibitor, ThT fluorescence; substoichiometric, 37 °C, added: α-synuclein 40 µM).
`Cn1sc(=O)n(Cc2ccccc2)c1=O` gave an inhibitory concentration of 15.6 µM (Bacteroides Pif1 helicase; helicase unwinding activity).
